Results gathered from unrelated publications.
Each numbered part is a random draw from the data of one study; scales do not carry over between parts. Values joined by “and” are separate records of one study, mostly repeats; a detail may differ.
Chain of UniProt P10721 (whole entry, unmodified, looked up): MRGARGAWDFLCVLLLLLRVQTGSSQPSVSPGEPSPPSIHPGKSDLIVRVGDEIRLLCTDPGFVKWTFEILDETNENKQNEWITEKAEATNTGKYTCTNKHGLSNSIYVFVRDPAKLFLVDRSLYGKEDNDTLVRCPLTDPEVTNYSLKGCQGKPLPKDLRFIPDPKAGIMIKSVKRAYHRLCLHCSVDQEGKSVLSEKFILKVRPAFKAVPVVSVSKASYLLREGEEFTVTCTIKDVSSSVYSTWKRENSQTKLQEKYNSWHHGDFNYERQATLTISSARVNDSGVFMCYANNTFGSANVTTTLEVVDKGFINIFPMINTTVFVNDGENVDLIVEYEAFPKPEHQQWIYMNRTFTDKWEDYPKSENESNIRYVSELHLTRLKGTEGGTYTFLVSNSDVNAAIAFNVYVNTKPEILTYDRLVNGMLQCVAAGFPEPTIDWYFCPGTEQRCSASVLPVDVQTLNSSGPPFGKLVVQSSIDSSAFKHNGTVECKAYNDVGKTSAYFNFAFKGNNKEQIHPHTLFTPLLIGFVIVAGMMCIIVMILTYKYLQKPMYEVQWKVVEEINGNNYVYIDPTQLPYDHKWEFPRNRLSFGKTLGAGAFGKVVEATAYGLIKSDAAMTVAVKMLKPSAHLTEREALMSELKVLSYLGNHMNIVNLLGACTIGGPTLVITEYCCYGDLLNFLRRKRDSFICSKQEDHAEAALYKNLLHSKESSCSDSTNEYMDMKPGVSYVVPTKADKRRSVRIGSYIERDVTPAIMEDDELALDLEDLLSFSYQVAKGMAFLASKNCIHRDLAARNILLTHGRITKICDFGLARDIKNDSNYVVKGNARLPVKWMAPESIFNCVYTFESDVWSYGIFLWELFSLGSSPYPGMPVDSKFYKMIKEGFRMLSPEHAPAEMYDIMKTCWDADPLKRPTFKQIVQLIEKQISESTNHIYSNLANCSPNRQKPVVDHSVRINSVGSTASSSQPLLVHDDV
Chain of UniProt Q9Y2U5 (whole entry, looked up): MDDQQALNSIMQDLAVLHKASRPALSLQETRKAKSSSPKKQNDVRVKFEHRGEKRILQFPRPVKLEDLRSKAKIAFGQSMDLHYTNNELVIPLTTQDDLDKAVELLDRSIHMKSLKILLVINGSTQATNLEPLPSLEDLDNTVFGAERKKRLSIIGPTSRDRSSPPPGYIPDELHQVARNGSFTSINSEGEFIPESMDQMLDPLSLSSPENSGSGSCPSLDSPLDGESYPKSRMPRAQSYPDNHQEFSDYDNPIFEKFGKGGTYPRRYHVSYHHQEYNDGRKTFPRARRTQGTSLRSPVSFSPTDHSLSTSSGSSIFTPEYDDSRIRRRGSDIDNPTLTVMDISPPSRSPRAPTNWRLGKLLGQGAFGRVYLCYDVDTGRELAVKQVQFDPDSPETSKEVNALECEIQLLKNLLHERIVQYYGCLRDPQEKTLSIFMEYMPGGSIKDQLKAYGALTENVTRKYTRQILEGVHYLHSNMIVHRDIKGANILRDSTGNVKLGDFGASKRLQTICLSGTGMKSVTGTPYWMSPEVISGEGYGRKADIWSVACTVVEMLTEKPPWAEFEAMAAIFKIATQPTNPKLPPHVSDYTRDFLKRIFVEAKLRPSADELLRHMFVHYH
Chain of UniProt Q9UKE5 (whole entry, looked up): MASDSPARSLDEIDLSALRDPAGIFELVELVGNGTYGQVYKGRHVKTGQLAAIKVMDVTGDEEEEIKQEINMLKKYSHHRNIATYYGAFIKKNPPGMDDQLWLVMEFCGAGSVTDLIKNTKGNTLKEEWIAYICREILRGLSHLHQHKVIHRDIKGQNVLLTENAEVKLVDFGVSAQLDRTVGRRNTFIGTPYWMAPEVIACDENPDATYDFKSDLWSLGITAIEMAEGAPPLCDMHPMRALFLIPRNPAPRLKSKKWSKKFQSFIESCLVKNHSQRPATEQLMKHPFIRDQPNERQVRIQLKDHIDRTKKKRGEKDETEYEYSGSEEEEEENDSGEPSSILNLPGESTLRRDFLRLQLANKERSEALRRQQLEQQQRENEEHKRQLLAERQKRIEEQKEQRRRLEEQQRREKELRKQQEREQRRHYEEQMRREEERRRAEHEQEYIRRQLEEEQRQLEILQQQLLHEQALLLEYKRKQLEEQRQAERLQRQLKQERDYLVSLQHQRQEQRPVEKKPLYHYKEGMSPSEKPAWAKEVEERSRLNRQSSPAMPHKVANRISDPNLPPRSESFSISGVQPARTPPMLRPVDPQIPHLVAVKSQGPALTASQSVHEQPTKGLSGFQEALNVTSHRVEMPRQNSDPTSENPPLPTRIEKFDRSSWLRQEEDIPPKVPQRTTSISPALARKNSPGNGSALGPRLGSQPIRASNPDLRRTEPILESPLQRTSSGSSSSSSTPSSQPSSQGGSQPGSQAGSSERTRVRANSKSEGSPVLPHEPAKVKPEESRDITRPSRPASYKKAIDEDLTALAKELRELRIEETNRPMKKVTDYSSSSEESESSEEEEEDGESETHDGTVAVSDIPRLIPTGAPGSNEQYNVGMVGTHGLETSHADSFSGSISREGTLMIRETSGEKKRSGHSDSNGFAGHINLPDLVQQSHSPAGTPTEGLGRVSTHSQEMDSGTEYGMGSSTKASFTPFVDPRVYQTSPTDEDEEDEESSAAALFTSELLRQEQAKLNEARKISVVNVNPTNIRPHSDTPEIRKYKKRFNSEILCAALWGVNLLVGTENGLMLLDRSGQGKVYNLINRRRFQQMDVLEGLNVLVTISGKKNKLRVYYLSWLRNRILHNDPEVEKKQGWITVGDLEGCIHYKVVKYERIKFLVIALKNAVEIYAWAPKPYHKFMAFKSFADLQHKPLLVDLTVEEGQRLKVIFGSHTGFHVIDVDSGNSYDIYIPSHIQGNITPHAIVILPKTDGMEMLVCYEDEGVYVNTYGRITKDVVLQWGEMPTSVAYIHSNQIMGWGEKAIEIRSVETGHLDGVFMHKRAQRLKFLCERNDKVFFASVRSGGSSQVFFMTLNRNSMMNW
Chain of UniProt Q09013 (whole entry, looked up): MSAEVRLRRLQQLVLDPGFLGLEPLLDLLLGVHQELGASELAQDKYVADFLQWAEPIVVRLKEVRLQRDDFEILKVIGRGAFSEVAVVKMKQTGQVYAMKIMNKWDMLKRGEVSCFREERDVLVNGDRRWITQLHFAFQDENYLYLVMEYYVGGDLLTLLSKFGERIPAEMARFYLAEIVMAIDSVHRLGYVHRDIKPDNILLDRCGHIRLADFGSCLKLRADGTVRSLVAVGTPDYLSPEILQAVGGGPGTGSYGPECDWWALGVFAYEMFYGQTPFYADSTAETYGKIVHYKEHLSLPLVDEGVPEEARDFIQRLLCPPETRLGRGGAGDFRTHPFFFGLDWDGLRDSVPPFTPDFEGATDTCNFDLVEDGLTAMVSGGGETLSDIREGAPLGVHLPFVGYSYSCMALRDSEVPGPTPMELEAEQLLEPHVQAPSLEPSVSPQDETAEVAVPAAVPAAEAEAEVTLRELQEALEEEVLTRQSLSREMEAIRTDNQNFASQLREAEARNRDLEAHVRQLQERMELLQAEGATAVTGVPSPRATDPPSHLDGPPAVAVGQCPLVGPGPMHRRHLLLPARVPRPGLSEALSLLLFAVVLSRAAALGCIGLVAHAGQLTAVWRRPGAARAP
Chain of UniProt Q13043 (whole entry, looked up): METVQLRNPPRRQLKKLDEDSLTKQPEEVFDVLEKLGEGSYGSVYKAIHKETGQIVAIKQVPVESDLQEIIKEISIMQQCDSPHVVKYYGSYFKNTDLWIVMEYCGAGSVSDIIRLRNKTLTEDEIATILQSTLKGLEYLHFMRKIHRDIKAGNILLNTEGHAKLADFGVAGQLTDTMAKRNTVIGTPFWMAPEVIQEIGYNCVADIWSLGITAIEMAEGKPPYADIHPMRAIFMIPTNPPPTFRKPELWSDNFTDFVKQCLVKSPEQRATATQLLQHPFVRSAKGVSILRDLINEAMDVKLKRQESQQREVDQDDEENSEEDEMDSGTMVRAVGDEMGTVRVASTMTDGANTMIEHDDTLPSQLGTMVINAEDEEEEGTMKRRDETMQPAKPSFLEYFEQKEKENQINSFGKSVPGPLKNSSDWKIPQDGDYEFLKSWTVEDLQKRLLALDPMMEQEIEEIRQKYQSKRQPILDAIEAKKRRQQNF
Chain of UniProt Q16512 (whole entry, looked up): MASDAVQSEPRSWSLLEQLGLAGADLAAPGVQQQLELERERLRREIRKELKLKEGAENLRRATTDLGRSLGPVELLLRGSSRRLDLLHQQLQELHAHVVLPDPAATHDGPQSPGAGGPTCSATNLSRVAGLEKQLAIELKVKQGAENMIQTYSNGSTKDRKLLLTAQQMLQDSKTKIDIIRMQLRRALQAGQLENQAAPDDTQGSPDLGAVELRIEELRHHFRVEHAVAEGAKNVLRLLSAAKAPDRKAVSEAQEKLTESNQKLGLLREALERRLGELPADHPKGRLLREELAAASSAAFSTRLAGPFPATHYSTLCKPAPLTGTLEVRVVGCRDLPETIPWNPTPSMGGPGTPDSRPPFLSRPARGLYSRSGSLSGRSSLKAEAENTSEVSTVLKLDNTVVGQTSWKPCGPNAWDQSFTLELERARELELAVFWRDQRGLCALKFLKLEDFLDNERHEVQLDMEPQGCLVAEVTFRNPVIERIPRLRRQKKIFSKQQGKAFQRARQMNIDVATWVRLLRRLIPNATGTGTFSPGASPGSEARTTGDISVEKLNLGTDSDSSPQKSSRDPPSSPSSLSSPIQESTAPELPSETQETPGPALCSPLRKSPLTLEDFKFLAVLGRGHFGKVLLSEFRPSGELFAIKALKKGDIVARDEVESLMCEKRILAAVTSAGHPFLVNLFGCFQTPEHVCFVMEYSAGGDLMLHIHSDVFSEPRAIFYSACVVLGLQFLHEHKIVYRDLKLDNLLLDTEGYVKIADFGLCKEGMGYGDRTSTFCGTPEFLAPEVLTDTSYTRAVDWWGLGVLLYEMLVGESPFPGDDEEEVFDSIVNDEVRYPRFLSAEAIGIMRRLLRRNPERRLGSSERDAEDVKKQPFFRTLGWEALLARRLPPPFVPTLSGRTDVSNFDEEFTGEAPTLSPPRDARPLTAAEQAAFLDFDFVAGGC

Series 1 — cell line: mouse MPNST tumor cells; technique: high-content nuclear imaging; item: cell number; concentration: 10 µM; time: 12 h; notes: mean of 2 replicates; relative to: plate mean; reading: higher = more cells; endpoint: nuclei count
O=C(CCNNC(=O)c1ccncc1)NCc1ccccc1: 1.05 z-score
COc1cccc(OC)c1-c1cc(C(=O)NC(CC(C)C)C(=O)O)nn1-c1ccnc2cc(Cl)ccc12 (stereo not shown): 1.73 z-score
N#Cc1c(N)nc(SCc2ncc[nH]2)c(C#N)c1-c1ccc(O)cc1: 1.22 z-score
O=C(c1cccc(Br)c1)N1CCC(N2CCCC2)CC1: 0.224 z-score
Nc1nccc(/C=C/c2ccccc2)n1: -2.1 z-score
NS(=O)(=O)c1cc2c(cc1Cl)NC(C1CC3C=CC1C3)NS2(=O)=O (stereo not shown): 1.22 z-score
CC(C(=O)O)c1ccc(-c2ccccc2)c(F)c1 (stereo not shown): 0.897 z-score and 0.545 z-score

Series 2 — cell line: A-375; concentration: 100 µM; time: 60 h; endpoint: viability
CCN1CCN(Cc2ccc(Nc3ncc(F)c(-c4cc(F)c5nc(C)n(C(C)C)c5c4)n3)nc2)CC1: 102%
Nc1ccc2cc3ccc(N)cc3nc2c1: 19.6%
CC(=O)O[C@H]1C(=O)[C@@]2(C)[C@H]([C@H](OC(=O)c3ccccc3)[C@]3(O)C[C@H](OC(=O)[C@H](O)[C@@H](NC(=O)c4ccccc4)c4ccccc4)C(C)=C1C3(C)C)[C@]1(OC(C)=O)CO[C@@H]1C[C@@H]2O: 10.4%
CC(c1cc2ccccc2s1)N(O)C(N)=O (stereo not shown): 96.4%

Series 3 — Compound: CCC(=O)Nc1ccc2ncnc(Nc3cccc(Br)c3)c2c1; observed: enzyme activity; mode: inhibitor; concentration: 0.5 µM; relative to: control; endpoint: remaining activity
GRK5 (Homo sapiens, UniProt P34947): 107%
PKN2 (Homo sapiens, UniProt Q16513): 106%
NEK9 (Homo sapiens, UniProt Q8TD19): 105%
CAMK1G (Homo sapiens, UniProt Q96NX5): 92.1%
CAMK1D (Homo sapiens, UniProt Q8IU85): 104%
DYRK4 (Homo sapiens, UniProt Q9NR20): 113%
ROS1 (Homo sapiens, UniProt P08922): 97.5%
BRSK1 (Homo sapiens, UniProt Q8TDC3): 83.3%
NTRK3 (Homo sapiens, UniProt Q16288): 95.8%
HIPK3 (Homo sapiens, UniProt Q9H422): 92.1%
Cyclin-dependent kinase 2, with cyclin A (CDK2, Homo sapiens, UniProt P24941): 95.1%
SLK (Homo sapiens, UniProt Q9H2G2): 90%
PTK2B (Homo sapiens, UniProt Q14289): 99%
MAP3K2 (Homo sapiens, UniProt Q9Y2U5): 76.1%
Aurora kinase A (AURKA, Homo sapiens, UniProt O14965): 97.4%
CDK7 (Homo sapiens, UniProt P50613): 102%
CSNK2A2 (Homo sapiens, UniProt P19784): 61.4%
MAPK10 (Homo sapiens, UniProt P53779): 96.5%
RET (Homo sapiens, UniProt P07949): 106%
ROCK2 (Homo sapiens, UniProt O75116): 86.1%
MAP3K8 (Homo sapiens, UniProt P41279): 93%
PRKD1 (Homo sapiens, UniProt Q15139): 97.9%
DMPK (Homo sapiens, UniProt Q09013): 92%

Series 4 — observed: cell-free assay; technique: competition with immobilised ligand; concentration: 1 µM; endpoint: remaining binding
SMILES: CC(=O)N1CCC(c2ccc(C(=O)NC(=N)N)cc2C(F)(F)F)CC1
STK4 (Homo sapiens, UniProt Q13043): 98%
TNIK (Homo sapiens, UniProt Q9UKE5): 100%
Tyrosine-protein kinase ABL1, non-phosphorylated (ABL1, Homo sapiens, UniProt P00519, H396P): 60%
Ribosomal protein S6 kinase alpha-2, C-terminal kinase domain (RPS6KA2, Homo sapiens, UniProt Q15349): 97%
NTRK2 (Homo sapiens, UniProt Q16620): 100%
CAMK2A (Homo sapiens, UniProt Q9UQM7): 100%
CDKL5 (Homo sapiens, UniProt O76039): 82%
KIT (Homo sapiens, UniProt P10721, D816V): 100%
AKT1 (Homo sapiens, UniProt P31749): 100%
KIT (Homo sapiens, UniProt P10721, V559D/V654A): 100%
PIKFYVE (Homo sapiens, UniProt Q9Y2I7): 84%
PKN1 (Homo sapiens, UniProt Q16512): 87%
TAOK1 (Homo sapiens, UniProt Q7L7X3): 100%
DCLK3 (Homo sapiens, UniProt Q9C098): 98%

Single results of other studies
C=C(F)C(=O)N1CCN(c2nc(OC[C@@H]3CCCN3C)nc3c2CCN(c2cccc4cccc(Cl)c24)C3)C[C@@H]1CC#N — normalized BRET (GTPase HRas (HRAS, Homo sapiens, UniProt P01112); binding, competitor, NanoBRET; HEK293; 39.1 nM): 89.9%
